Literature values as cited in several papers.
Each line is one published result; not all experiments were run side by side. “And” joins repeats or separate records; there may be more than shown. Numbers after ± are the reported error.
CA9: Carbonic anhydrase 9 (CA9, Homo sapiens, UniProt Q16790)
SIGMAR1: Sigma non-opioid intracellular receptor 1 (SIGMAR1, Homo sapiens, UniProt Q99720)
UniProt Q99720, sequence (whole entry, looked up): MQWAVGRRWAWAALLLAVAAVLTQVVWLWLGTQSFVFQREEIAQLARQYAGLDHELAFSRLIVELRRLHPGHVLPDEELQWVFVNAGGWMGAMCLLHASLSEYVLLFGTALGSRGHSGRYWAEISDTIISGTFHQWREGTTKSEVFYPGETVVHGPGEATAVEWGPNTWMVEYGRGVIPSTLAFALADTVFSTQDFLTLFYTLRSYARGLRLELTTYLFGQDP
UniProt P00915, sequence (whole entry, looked up): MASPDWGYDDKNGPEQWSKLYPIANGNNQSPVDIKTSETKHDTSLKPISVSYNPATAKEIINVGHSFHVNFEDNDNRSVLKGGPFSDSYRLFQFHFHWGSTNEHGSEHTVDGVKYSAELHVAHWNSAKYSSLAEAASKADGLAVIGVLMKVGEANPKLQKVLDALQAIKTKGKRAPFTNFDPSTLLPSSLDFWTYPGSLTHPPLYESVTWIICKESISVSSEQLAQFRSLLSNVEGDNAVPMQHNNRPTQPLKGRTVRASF
UniProt Q9UUB1, sequence (whole entry, looked up): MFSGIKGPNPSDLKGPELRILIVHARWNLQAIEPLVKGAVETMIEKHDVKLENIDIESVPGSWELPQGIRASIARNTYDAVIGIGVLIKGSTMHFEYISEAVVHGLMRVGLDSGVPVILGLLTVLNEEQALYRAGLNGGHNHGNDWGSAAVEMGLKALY
UniProt Q16819, sequence (whole entry, looked up): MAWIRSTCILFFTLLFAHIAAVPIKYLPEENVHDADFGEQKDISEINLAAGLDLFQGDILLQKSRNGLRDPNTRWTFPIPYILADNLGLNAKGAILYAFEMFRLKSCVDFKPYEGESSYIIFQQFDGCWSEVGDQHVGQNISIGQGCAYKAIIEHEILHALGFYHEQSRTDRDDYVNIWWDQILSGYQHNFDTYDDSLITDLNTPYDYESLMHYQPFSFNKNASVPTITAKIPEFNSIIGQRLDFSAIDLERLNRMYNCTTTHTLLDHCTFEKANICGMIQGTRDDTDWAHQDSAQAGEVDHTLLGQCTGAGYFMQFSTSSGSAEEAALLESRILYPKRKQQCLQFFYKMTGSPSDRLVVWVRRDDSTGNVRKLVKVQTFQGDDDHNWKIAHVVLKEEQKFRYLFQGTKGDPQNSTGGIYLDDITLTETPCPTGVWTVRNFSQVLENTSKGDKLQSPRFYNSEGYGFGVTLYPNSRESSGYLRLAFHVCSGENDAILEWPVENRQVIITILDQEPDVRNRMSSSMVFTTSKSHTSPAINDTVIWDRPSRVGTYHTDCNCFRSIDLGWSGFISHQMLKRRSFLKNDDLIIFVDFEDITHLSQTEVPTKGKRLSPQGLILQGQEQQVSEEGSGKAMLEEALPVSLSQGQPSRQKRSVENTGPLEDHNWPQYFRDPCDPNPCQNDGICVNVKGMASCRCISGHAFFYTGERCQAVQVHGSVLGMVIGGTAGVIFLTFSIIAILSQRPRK
UniProt P9WHE9, sequence (whole entry, looked up): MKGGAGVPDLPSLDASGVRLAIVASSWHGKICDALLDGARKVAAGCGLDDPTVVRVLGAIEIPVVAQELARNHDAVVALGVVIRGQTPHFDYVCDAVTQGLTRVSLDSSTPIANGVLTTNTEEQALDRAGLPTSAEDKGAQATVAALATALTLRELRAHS
UniProt P07339, sequence (whole entry, looked up): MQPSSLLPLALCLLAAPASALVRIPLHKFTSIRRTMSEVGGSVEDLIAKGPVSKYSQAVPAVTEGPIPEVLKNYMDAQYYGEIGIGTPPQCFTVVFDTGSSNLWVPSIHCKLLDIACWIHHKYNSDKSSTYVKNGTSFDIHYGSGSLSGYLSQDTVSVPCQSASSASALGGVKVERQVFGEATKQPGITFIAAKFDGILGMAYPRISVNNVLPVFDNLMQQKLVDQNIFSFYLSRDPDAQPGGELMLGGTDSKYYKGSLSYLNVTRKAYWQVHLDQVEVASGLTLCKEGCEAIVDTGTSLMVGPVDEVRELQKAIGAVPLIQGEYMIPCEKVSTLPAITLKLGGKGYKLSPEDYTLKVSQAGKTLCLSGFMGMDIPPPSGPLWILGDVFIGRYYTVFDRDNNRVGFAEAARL
UniProt Q15761, sequence (whole entry, looked up): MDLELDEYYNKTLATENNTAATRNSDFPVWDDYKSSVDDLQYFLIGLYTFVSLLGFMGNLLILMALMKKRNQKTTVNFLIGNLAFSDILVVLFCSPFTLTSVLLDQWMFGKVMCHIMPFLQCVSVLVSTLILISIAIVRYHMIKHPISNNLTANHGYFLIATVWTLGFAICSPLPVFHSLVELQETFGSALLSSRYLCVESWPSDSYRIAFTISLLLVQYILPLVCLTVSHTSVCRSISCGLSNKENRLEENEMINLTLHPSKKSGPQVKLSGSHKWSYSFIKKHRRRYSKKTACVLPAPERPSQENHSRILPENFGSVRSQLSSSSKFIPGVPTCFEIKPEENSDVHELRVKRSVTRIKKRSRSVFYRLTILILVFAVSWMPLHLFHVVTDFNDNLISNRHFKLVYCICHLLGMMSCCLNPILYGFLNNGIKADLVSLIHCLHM

COc1cc2c(cc1OC)[C@@H]1C[C@@H](O)[C@@H](CC(C)C)CN1CC2  Ki (dopamine D2 receptor; binding): 0.017 µg/mL
NS(=O)(=O)c1ccc(CCn2c(SCC(=O)N/N=C/c3ccccc3)nc3ccccc3c2=O)cc1  Ki (CA9): 61.7 nM
O=C(/C=C/c1ccsc1)c1cc2ccccc2oc1=O  Ki (adenosine A2A receptor (human)): > 30000 nM
C[C@H](NC(=O)CC[C@H](N)C(=O)O)C(=O)NCP(=O)(O)CCCCNCCCCN  Ki (Trypanothione synthetase (Trypanosoma brucei, UniProt Q586P2)): 500 to 1200 nM
O=c1[nH]c(SC[C@H](O)[C@H](O)[C@H](O)CO)c([N+](=O)[O-])c(=O)[nH]1  Ki (Bacillus subtilis lumazine synthase; inhibitor; recombinant β60 capsid; pH 7.0, Tris·HCl buffer, added: 2 constant, 1 varied): 26000 ± 3000 nM
COC(=O)CN(C/C=C/c1ccc(OC)c(OC)c1)Cc1ccc(F)cc1  Ki (9-cis-epoxycarotenoid dioxygenase (recombinant); reversible competitive inhibitor): 39000 nM
COc1cc2nc(SC(C)C(=O)NCCc3ccc(S(N)(=O)=O)cc3)n(Cc3ccccc3)c(=O)c2cc1OC (stereo not drawn)  Ki (carbonic anhydrase IX, human): 16.4 to 24.2 nM
COc1cc2c(cc1OC)CN(CCCCn1ccc3c(OCCF)cccc31)C2  Ki (SIGMAR1; binding): 371 ± 105 nM
O=C(CCN(Cc1ccccc1)Cc1ccccc1)NO  Ki (Meprin A subunit alpha (MEP1A, Homo sapiens, UniProt Q16819); inhibitor): 1650 nM
NCCN(CCNC(=O)c1ccc(C(=O)NCCOCCOCCNC(=O)/N=C(/N)NCCC[C@@H](NC(=O)C(c2ccccc2)c2ccccc2)C(=O)NCc2ccc(O)cc2)cc1)CCNC(=O)c1ccc(C(=O)NCCOCCOCCNC(=O)/N=C(/N)NCCC[C@@H](NC(=O)C(c2ccccc2)c2ccccc2)C(=O)NCc2ccc(O)cc2)cc1  Ki (Neuropeptide Y receptor type 5 (NPY5R, Homo sapiens, UniProt Q15761); binding): > 5000 nM
CCOC(=O)C(=O)Nc1c(NC[C@H](O)[C@H](O)[C@H](O)CO)[nH]c(=O)[nH]c1=O  Ki (6,7-dimethyl-8-ribityllumazine synthase (rib4, Schizosaccharomyces pombe, UniProt Q9UUB1); inhibitor; pH 7.0): 1100 ± 200 nM
COc1cc2c(cc1OC)CN(CCCCn1ccc3cc(OCCF)ccc31)C2  Ki (SIGMAR1; binding): 187 ± 1.41 nM
CC(C)C(=O)Nc1c(NC[C@H](O)[C@H](O)[C@H](O)CO)[nH]c(=O)[nH]c1=O  Ki (6,7-dimethyl-8-ribityllumazine synthase (ribH, Mycobacterium tuberculosis, UniProt P9WHE9); inhibitor; pH 7.0): 42000 ± 16000 nM
C/C(=N\NC(=O)CSc1nc2ccccc2c(=O)n1CCc1ccc(S(N)(=O)=O)cc1)c1ccccc1  Ki (Carbonic anhydrase 1 (CA1, Homo sapiens, UniProt P00915); enzyme activity, inhibitor): 124 nM
OCCNC(CO)CO  Ki (yeast alpha-glucosidase): 4000 nM and 4000 to 10000 nM
COc1cc(C(=O)O)ccc1Cc1cn(C)c2ccc(NC(=O)OC3CCCC3)cc12  Ki (CysLT1 receptor): 157 nM
O=c1[nH]cnc2c(CN[C@H](CO)CCP(=O)(O)O)c[nH]c12  Ki (Plasmodium falciparum HGXPRT; inhibitor): 0.6 nM and 0.5 to 0.6 nM
COCCOc1cc2ncnc(Nc3cccc(-c4cn(CC(=O)Nc5cccc(S(N)(=O)=O)c5)nn4)c3)c2cc1OCCOC  Ki (Helicobacter pylori alpha-carbonic anhydrase; inhibitor, stopped-flow CO2 hydration): 71.6 nM
O=C(O)/C(S)=C/c1c[nH]c2ccc(F)cc12  Ki (µ-calpain): 260 nM
NS(=O)(=O)c1ccc(CCn2c(S)nc3ccccc3c2=O)cc1  Ki (carbonic anhydrase II, human): 0.62 nM
CCn1nc(Cc2ccccc2)cc1C1CCN(C[C@H]2C[C@H](N(C)C(C(=O)O)C(C)C)C[C@@H]2c2cccc(F)c2)CC1 (stereo partly drawn)  Ki (C-C chemokine receptor type 5 (Macaca mulatta, UniProt P61813); biochemical): 1 nM
CC(C)(CCCCCC(O)CCCCCC(C)(C)C(=O)SCCNC(=O)CCNC(=O)C(O)C(C)(C)COP(=O)(O)OP(=O)(O)OCC1OC(n2cnc3c(N)ncnc32)C(O)C1OP(=O)(O)O)C(=O)O (stereo not drawn)  Ki (ATP citrate lyase): 2000 nM
O=C(/C=C/Nc1ccccc1)c1cc2ccccc2oc1=O  Ki (CA9; inhibitor): 93.9 nM
C=CC(=O)N1CCC[C@@H](n2nc(-c3ccc4ccccc4c3)c3c(N)ncnc32)C1  Ki (Epidermal growth factor receptor (EGFR, Homo sapiens, UniProt P00533, L858R)): 1.6 ± 0.4 nM
CN(Cc1c[nH]c2c(=O)[nH]cnc12)[C@H](CO)CCP(=O)(O)O  Ki (Trypanosoma cruzi HGPRT; inhibitor): 1400 ± 30 nM
CCC(=O)NCCNC(=O)N=C(N)NCCC[C@@H](NC(=O)C(c1ccccc1)c1ccccc1)C(=O)NCc1ccc(O)cc1  Ki (NPFF2R; binding): > 3000 nM
CNc1ccc(/C=C/c2ccc(O)cc2)cc1  Ki (amyloid beta fibrils; binding; in vitro generated fibrils): 6 nM
Nc1nc2c(CNCCCP(=O)(O)O)c[nH]c2c(=O)[nH]1  Ki (Trypanosoma cruzi HGPRT; inhibitor): 3600 ± 300 nM
C=CCC(=N)NCCC[C@H](N)C(=O)O  Ki (bovine eNOS): 12000 nM
O=S(=O)(NCB(O)O)c1ccc(-c2nnn[nH]2)cc1C(F)(F)F  Ki (ADC-7 beta-lactamase; inhibitor): 0.45 nM
OCCC1CCN(Cc2ccc(OCCCN3CCCCC3)cc2)CC1  Ki (histamine H3 receptor (human); binding): 1 nM
CC(C)[C@H](NC(=O)[C@@H]1CCCN1C(=O)[C@@H](N)CCCCN)C(=O)N[C@@H](CCC(=O)O)C(=O)N[C@H](CN[C@@H](CCCNC(=N)N)C(=O)N[C@@H](CCC(N)=O)C(=O)N[C@H](C(=O)O)[C@@H](C)O)Cc1ccccc1  Ki (Cathepsin D (CTSD, Homo sapiens, UniProt P07339); enzyme activity, inhibitor): 30 ± 2 nM
CCc1c(Cl)cccc1N1CCN(C[C@H](F)CCNC(=O)c2cc3ccccc3[nH]2)CC1  Ki (dopamine D3 receptor; binding): 0.37 ± 0.06 nM
CCCCOC(=O)NS(=O)(=O)c1sc(CC(C)C)cc1-c1cccc(CN(CC)C(C)=O)c1  Ki (angiotensin II type 2 receptor, pig; uterus membranes): 29 nM
O=c1[nH]cnc2c(CNCC(O)CP(=O)(O)O)c[nH]c12 (racemic)  Ki (Trypanosoma cruzi HGPRT; inhibitor): 170 ± 20 nM
CCn1cc(-c2cc(Cn3ccnc3)cc3c2CCN([C@H](c2cc(OC)ccn2)C2CC2)C3=O)c(C(F)(F)F)n1  Ki (WD repeat-containing protein 5 (WDR5, Homo sapiens, UniProt P61964); TR-FRET): < 0.02 nM
C=CC(=O)N1CCC[C@@H](n2nc(-c3cccc4ccccc34)c3c(N)ncnc32)C1  Ki (Epidermal growth factor receptor (EGFR, Homo sapiens, UniProt P00533)): 47 ± 5.8 nM
COCCOc1cc2ncnc(Nc3cccc(-c4cn(-c5ccc(S(N)(=O)=O)cc5)nn4)c3)c2cc1OCCOC  Ki (Helicobacter pylori alpha-carbonic anhydrase; inhibitor, stopped-flow CO2 hydration): 63.3 nM
COC(=O)NC(C(=O)NN(Cc1ccc(Br)cc1)CC(O)(Cc1ccccc1)C(=O)NC1CCOC1)C(C)(C)C (stereo not drawn)  Ki (Gag-Pol polyprotein, protease (gag-pol, Human immunodeficiency virus type 1 group M subtype B, UniProt P04585); inhibitor): 110 nM

Excerpt of the above:
OCCC1CCN(Cc2ccc(OCCCN3CCCCC3)cc2)CC1  Ki (histamine H3 receptor (human); binding): 1 nM
COCCOc1cc2ncnc(Nc3cccc(-c4cn(CC(=O)Nc5cccc(S(N)(=O)=O)c5)nn4)c3)c2cc1OCCOC  Ki (Helicobacter pylori alpha-carbonic anhydrase; inhibitor, stopped-flow CO2 hydration): 71.6 nM
COc1cc2c(cc1OC)[C@@H]1C[C@@H](O)[C@@H](CC(C)C)CN1CC2  Ki (dopamine D2 receptor; binding): 0.017 µg/mL
